Assay results of several laboratories.
Protocols differ between the studies behind these lines. Values joined by “and” are separate records of one study, mostly repeats; a detail may differ. ± marks the error that the study gave.

`O=c1nc(NO)ccn1[C@@H]1O[C@H](CO)[C@@H](O)[C@H]1O` has a bench-top stability of 101 ± 1.82% (rat maternal blood dialysate; 1000 ng/mL, 6 h, room temperature, high QC concentration, with: molnupiravir).
The AUC(0-inf) of `CCC[C@@](N)(CO)CCc1ccc(OCCCCCC(C)C)cc1` is reported as 18.1 µM·h (dog; oral, 10 mg/kg).
`C[C@]1(O)C[C@@](N)(c2ccc(-c3nc4n(c3-c3ccccc3)COc3ccncc3-4)cc2)C1`: “patients with Fatigue TEAE” 100% (human, advanced or metastatic solid tumours; 16 mg once daily, dose-response cohort).
With `CC(C)Nc1ccnc(Nc2cccc(-c3cccnc3)c2)n1` the blood chemistry was 11.4 mg/dL (measured: Phosphorus; mouse, blood; intraperitoneal, 10 mg/kg).
`CN[C@@H](C)C(=O)N[C@H]1CN(S(=O)(=O)c2cccc(S(=O)(=O)N3CC[C@H]4CC[C@@H](C(=O)NC(c5ccccc5)c5ccccc5)N4C(=O)[C@@H](NC(=O)[C@H](C)NC)C3)c2)CC[C@H]2CC[C@@H](C(=O)NC(c3ccccc3)c3ccccc3)N2C1=O`: “treatment-related facial nerve disorder incidence” 0% (patients with advanced solid tumours; 12 mg, phase I monotherapy).
Under “participants with grade 3 LDL-C increase”, `Cn1nc(NS(C)(=O)=O)c2c(Cl)ccc(-n3c([C@H](Cc4cc(F)cc(F)c4)NC(=O)Cn4nc(C(F)F)c5c4C(F)(F)[C@@H]4C[C@H]54)nc4nc(OCCC(F)(F)F)ccc4c3=O)c21` is recorded as 6% (human; dose not given).
`CCc1ccc(CC/C=C/c2ccc3c(c2)C(=O)CC3)cc1` has a Fibrinogen of 2.25 g/L (Sprague-Dawley rat, female; oral, 120 mg/kg/day, 14 days).
`C[C@@H]1OC(=O)NN=C1c1ccc(-c2ccc(F)cc2)c(C(F)(F)F)c1`: “patients with TEAE” 0% (phase I trial, measured: alkaline phosphatase increased; human patients; 10 mg load, 0.5 mg daily, worst grade 1).
`CC(C)C[C@H](NC(=O)[C@H](CCCCN)NC(=O)OCC1c2ccccc2-c2ccccc21)C(=O)N[C@H](C(=O)N[C@@H](Cc1ccccc1)C(=O)N[C@@H](Cc1ccccc1)C(=O)N[C@@H](CCCCN)C(=O)NCC(=O)N[C@@H](Cc1ccccc1)C(=O)N[C@@H](C)C(=O)N[C@@H](Cc1c[nH]c2ccccc12)C(=O)N[C@@H](CC(N)=O)C(=O)N[C@H](C(=O)N[C@H]1CSSC[C@@H](C(=O)N[C@@H](Cc2c[nH]cn2)C(=O)N[C@@H](CCCNC(=N)N)C(=O)N[C@@H](CCCNC(=N)N)C(=O)N[C@@H](C)C(=O)N[C@@H](CC(N)=O)C(N)=O)NC(=O)[C@H](C(C)C)NC(=O)[C@H](CCCNC(=N)N)NC(=O)[C@H](C(C)C)NC(=O)CNC(=O)[C@H](CC(N)=O)NC(=O)[C@H](CCCNC(=N)N)NC(=O)[C@H](Cc2ccc(O)cc2)NC(=O)[C@H](C(C)C)NC1=O)C(C)C)C(C)C` gave a peptide remaining of 69.4% and 60.9% and 66.5% (HPLC; trypsin buffer; 1.00 h, 37 °C, with: trypsin 1 % w/v).
`O=c1cc(-c2ccc(O)c(O)c2)oc2cc(O)cc(O)c12`: “faecal excreted amount” 58.7 ± 45.5 ng (male Sprague-Dawley rat, obese; oral, 100 mg/kg of neohesperidin, 24 to 36 h).
Under “patients with TEAE”, `O=C1Nc2cc3[nH]nc(-c4ccncc4)c3cc2CN1Cc1ccccc1` is recorded as 35% (measured: Fatigue; patients with advanced solid tumours; intravenous, dose not given, all schedules).
Under “blood chemistry level”, `O=S(=O)(Nc1ccccc1)c1ccc(NC(=S)Nc2ccccc2)cc1` is recorded as 0.18 mg/dL (measured: Bu; male mouse, blood; oral, 20 mg/kg daily, 14 days).
Under “serum total protein”, `Clc1ccc(-c2ccccc2)cc1` is recorded as 4 ± 0.3 g/dL (Sprague-Dawley rat female, serum; inhalation, 35 µg/rat, 24 h).
For `CC1(C)C(C=C(Cl)Cl)C1C(=O)OC(C#N)c1ccc(F)c(Oc2ccccc2)c1` (stereo not shown), “enzyme contribution to clearance” read 0.2% (measured: CYP3A5; human, age 5 years, recombinant human CYP3A5; 0.1 µM).
`CC1=C(O)C(=O)C=C2C1=CC=C1[C@@]2(C)CC[C@@]2(C)[C@@H]3C[C@](C)(C(=O)O)CC[C@]3(C)CC[C@]12C` has a tissue/plasma ratio of > 1 (rat Sprague-Dawley male; intraperitoneal, 4 mg/kg single dose, 2 h; relative to: neocortex over plasma).
`COc1ccc(-c2c(-c3ccc(C#N)c(F)c3)nc(N3CCC(N)CC3)n(C)c2=O)cc1F`: “treatment-related adverse event incidence” 4% (measured: Nausea; human patients; oral, dose not given, any grade, dose escalation, NG).
For `COc1cccc(Oc2ccccc2NC(=O)CNC(=O)c2cccc3ccccc23)c1`, the serum chloride was 112 mmol/L and 111 mmol/L (esterase-deficient SCID mice, male; oral, 100 mg/kg/day, 14 days, toxicity study).
`COc1ccc(C[C@@H]2NC(=O)[C@H]([C@@H](C)O)NC(=O)[C@@H]3[C@@H]4CCN3C(=O)[C@@H]3Cc5cn(c6ccc(F)cc56)CCCCCCN(Cc5ccc(cc5)CCNC(=O)[C@]5(C)CCCN5C2=O)C(=O)CCC(=O)N[C@@H](C)C(=O)N[C@H](CNC(=O)CCCCC[N+](C)(C)C)C(=O)N[C@@H](Cc2cccc(c2)CNC(=O)CO4)C(=O)N3)cc1` has an adverse events of 0% (measured: post lumbar puncture syndrome; human; Study-003 safety).
The calcium of `CC(C)[C@@H]1NC(=O)CNC(=O)[C@H](CC(N)=O)NC(=O)[C@H](CCCNC(=N)N)NC(=O)[C@H](Cc2ccc(O)cc2)NC(=O)[C@H](C(C)C)NC(=O)[C@@H](NC(=O)[C@@H](NC(=O)[C@H](CC(N)=O)NC(=O)[C@H](Cc2c[nH]c3ccccc23)NC(=O)[C@H](C)NC(=O)[C@H](Cc2ccccc2)NC(=O)CN)C(C)C)CSSC[C@@H](C(=O)N[C@@H](Cc2cnc[nH]2)C(=O)N[C@@H](CCCNC(=N)N)C(=O)N[C@@H](CCCNC(=N)N)C(=O)N[C@@H](C)C(=O)N[C@@H](CC(N)=O)C(N)=O)NC(=O)[C@H](C(C)C)NC(=O)[C@H](CCCNC(=N)N)NC1=O` is reported as 1.37 ± 0.02 mmol/L (ICR mouse, blood; intramammary, 10 mg/kg, day 5, 3 d dosing).
`CC(=O)c1c(C)c2cnc(Nc3ccc(C4CCN(CCS(C)(=O)=O)CC4)cn3)nc2n(C2CCCC2)c1=O` has a clearance of 1290 mL/min (human, dose-escalation trial, plasma; oral, 25 mg twice daily, day 1, single dose).
`COc1ncccc1-c1cnn2ccc(N3CCN(C(=O)OC(C)C)CC3)nc12` has a free concentration of 36 nM (rat CCI model, plasma; oral, 10 mg/kg, 210 min).
`CO[C@H]1C[C@@H]2CC[C@@H](C)[C@@](O)(O2)C(=O)C(=O)N2CCCC[C@H]2C(=O)O[C@H]([C@H](C)C[C@@H]2CC[C@@H](OC(=O)NCCOCCOCCOCCOCCOCCOCCOCCOCCC(=O)N3CCc4cc(Cn5nc(-c6ccc7oc(N)nc7c6)c6c(N)ncnc65)ccc4C3)[C@H](OC)C2)C[C@@H](O)[C@H](C)/C=C(\C)[C@@H](O)[C@@H](OC)C(=O)[C@H](C)C[C@H](C)/C=C/C=C/C=C/1C` — result for “incidence of Nausea TRAE”: 0% (patients with advanced solid tumours; intravenous, 1.6 mg/3 mg weekly, any grade).
The tissue uptake of `C[C@@H]1NC(=O)[C@H](CCCCNC(=O)CO/N=C/C(=O)NCCCC[C@@H]2NC(=O)[C@@H](Cc3ccccc3)NC(=O)[C@H](CC(=O)O)NC(=O)CNC(=O)[C@H](CCCNC(=N)N)NC2=O)NC(=O)CNC(=O)[C@@H]2CCCN2C(=O)[C@H](CCCCNC(=O)CO/N=C/C(=O)NCCCC[C@@H]2NC(=O)[C@@H](Cc3ccccc3)NC(=O)[C@H](CC(=O)O)NC(=O)CNC(=O)[C@H](CCCNC(=N)N)NC2=O)NC(=O)[C@H](CCCCNC(=O)[C@H](CCCCN)NC(=O)[C@H](Cc2ccccc2)NC(=O)CNC(=O)CN2CCCNCCNCCCNCC2)NC(=O)[C@H](CCCCNC(=O)CO/N=C/C(=O)NCCCC[C@@H]2NC(=O)[C@@H](Cc3ccccc3)NC(=O)[C@H](CC(=O)O)NC(=O)CNC(=O)[C@H](CCCNC(=N)N)NC2=O)NC(=O)CNC(=O)[C@@H]2CCCN2C(=O)[C@H](CCCCNC(=O)CO/N=C/C(=O)NCCCC[C@@H]2NC(=O)[C@@H](Cc3ccccc3)NC(=O)[C@H](CC(=O)O)NC(=O)CNC(=O)[C@H](CCCNC(=N)N)NC2=O)NC1=O` [copper-64 labelled] is reported as 0.47 ± 0.1 %ID/g (normal mice, pancreas; intravenous, 0.74 MBq, 24 h post-injection).
For `CCCCCCCCCCCCCCCC(=O)N[C@@H](CCC(=O)NCCCC[C@H](NC(=O)[C@H](CC(=O)O)NC(=O)[C@H](CO)NC(=O)[C@@H](NC(=O)[C@H](Cc1ccccc1)NC(=O)[C@@H](NC(=O)CNC(=O)[C@H](CCC(N)=O)NC(=O)[C@H](CO)NC(=O)[C@@H](N)Cc1c[nH]cn1)[C@@H](C)O)[C@@H](C)O)C(=O)N[C@@H](CO)C(=O)N[C@@H](CCC(=O)O)C(=O)N[C@@H](Cc1ccc(O)cc1)C(=O)N[C@@H](CC(C)C)C(=O)N[C@@H](CC(=O)O)C(=O)N[C@@H](CO)C(=O)N[C@@H](CCC(=O)O)C(=O)N[C@@H](CCCNC(=N)N)C(=O)N[C@@H](C)C(=O)N[C@@H](CCCNC(=N)N)C(=O)N[C@@H](CC(=O)O)C(=O)N[C@@H](Cc1ccccc1)C(=O)N[C@H](C(=O)N[C@@H](C)C(=O)N[C@@H](Cc1c[nH]c2ccccc12)C(=O)N[C@@H](CC(C)C)C(=O)N[C@@H](CCC(=O)O)C(=O)N[C@@H](C)C(=O)NCC(=O)NCC(=O)O)C(C)C)C(=O)O`, “injection site erythema” read 0% (human, CrCl < 20 mL/min; sc, 100 µg single dose).
`COc1ncnn2ccc(-c3cnc4nc(C)n(Cc5nnc([C@@H](C)F)o5)c4c3)c12` — result for “incidence of nail discoloration (all grades)”: 14.3% (human patients; oral, dose not given).
`COc1cc2c(Oc3ccc4[nH]c(C)cc4c3F)ccnc2cc1OCC1(N)CC1` — result for “grade 1 or 2 Cholesterol elevation”: 26.7% (paediatric recurrent refractory sarcoma; 8 mg/kg).
The uptake of `C#C[C@]1(O)CC[C@H]2[C@@H]3CCc4cc(O)ccc4[C@H]3CC[C@@]21C` is reported as < 5% (zebrafish AB embryos and larvae; 24 h).
`O=C(c1ccc(F)c(F)c1Nc1ccc(I)cc1F)N1CC(O)([C@@H]2CCCCN2)C1` — result for “fatal adverse events”: 0% (patients aged sample A to sample B years; oral, dose not given).

Repeated from above:
`CC(=O)c1c(C)c2cnc(Nc3ccc(C4CCN(CCS(C)(=O)=O)CC4)cn3)nc2n(C2CCCC2)c1=O` has a clearance of 1290 mL/min (human, dose-escalation trial, plasma; oral, 25 mg twice daily, day 1, single dose).
`CCc1ccc(CC/C=C/c2ccc3c(c2)C(=O)CC3)cc1` has a Fibrinogen of 2.25 g/L (Sprague-Dawley rat, female; oral, 120 mg/kg/day, 14 days).
